Assay results of several laboratories.
Lines come from different studies, so protocols differ.
Target: Calcium/calmodulin-dependent protein kinase type IV (CAMK4, Homo sapiens, UniProt Q16566)
One construct used (Q16566 1-473): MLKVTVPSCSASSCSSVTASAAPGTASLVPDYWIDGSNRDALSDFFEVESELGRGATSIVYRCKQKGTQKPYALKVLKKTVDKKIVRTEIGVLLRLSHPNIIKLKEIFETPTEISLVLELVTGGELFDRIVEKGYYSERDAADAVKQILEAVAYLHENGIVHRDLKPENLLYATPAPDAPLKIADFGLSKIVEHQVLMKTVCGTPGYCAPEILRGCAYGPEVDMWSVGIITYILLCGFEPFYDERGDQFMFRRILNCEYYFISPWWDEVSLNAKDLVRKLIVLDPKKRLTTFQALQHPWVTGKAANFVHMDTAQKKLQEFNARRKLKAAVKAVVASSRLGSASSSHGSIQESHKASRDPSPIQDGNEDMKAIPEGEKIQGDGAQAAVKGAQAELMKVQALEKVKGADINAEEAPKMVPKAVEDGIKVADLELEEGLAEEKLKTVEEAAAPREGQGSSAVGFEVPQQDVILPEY

Structure (SMILES)	assay	system	setting	scale	measurement	value
NC(=O)C[C@H]1CCc2sc3ncnc(O[C@H]4CC[C@H](N5CCOCC5)CC4)c3c21	enzyme activity, inhibitor		10 µM		inhibition	2%
Cc1cnc2nc1Nc1cccc(c1)COC/C=C/COCc1cc(ccc1OCCN1CCOCC1)N2	binding		0.1 µM		remaining binding	94%
CS(=O)(=O)Nc1cccc(-c2csc3cnc(Nc4ccc(N5CCN(CCCCCOc6cccc7c6C(=O)N(C6CCC(=O)NC6=O)C7=O)CC5)cc4)nc23)c1 (stereo not shown)	probe labelling, inhibitor, KiNativ chemoproteomics	MOLT-4	1 µM		inhibition	40.5%
C=CC(=O)N1CCCC(n2c(=O)c3ncccc3n(Cc3ccc(Oc4ccccc4)cc3)c2=O)C1 (stereo not shown)	cell-free assay, competition with immobilised ligand		1 µM		remaining binding	96%
CCN1CCN(Cc2ccc(C(=O)Nc3ccc(C)c(NCc4cnc5[nH]ccc5c4OC)c3)cc2C(F)(F)F)CC1	binding, competition with immobilised ligand		1 µM		remaining binding	100%
C=CC(=O)N1CCc2ccc(-n3c(=O)ccc4cnc5ccc(-c6cnn(C)c6)cc5c43)cc21	KINOMEscan		1 µM	reference: DMSO control	remaining binding	100%
O=C=[N][Ru-4]123([n]4c5ccc(O)cc5c5c6c(c7cc(F)c[n+]1c7c54)C(=O)NC6=O)[S+]1CC[S+]2CC[S+]3CC1 (stereo not shown)	enzyme activity		100 nM, human enzyme, together with: 10 µM ATP	reference: untreated	remaining activity	59%
Nc1ncc(-c2cc(-c3cnn(CC(F)(F)F)c3)ncc2F)nc1C(=O)NC1CNCC(F)C1 (stereo not shown)	enzyme activity		1 µM	reference: DMSO control	remaining activity	98.3%
CCn1cc(C(=O)O)c(=O)c2c(N)c(F)c(NC3CCCCC3)cc21	kinase activity		0.1 µM, together with: ATP at Km		inhibition	6.5%
C=CC(=O)Nc1cccc(-c2cnc3[nH]cc(C(=O)NC(C)(C)C)c3n2)c1	enzyme activity, inhibitor		0.1 µM		inhibition	1%
Cc1nc2c(F)cc(-c3nc(Nc4ccc(CNC(=O)CCCCCCC(=O)NO)cc4)ncc3F)cc2n1C(C)C	enzyme activity, inhibitor		1 µM		inhibition	65%
COc1cc(Nc2nc(C)cc(-c3cnn4nc(OC)ccc34)n2)cc(C(F)(F)F)c1	inhibitor		1 µM	reference: control	remaining activity	100%
Cc1cccc(O[C@H]2CCC[C@@H](C(C)CNCc3ccncc3)C2)c1 (relative stereo)	enzyme activity, inhibitor		10 µM		inhibition	-5%
COc1ccc(NC(=O)Nc2ccc3c(c2)C(=O)N(C(C)CO)CC(C)C(CN(C)Cc2ccc4c(c2)OCO4)O3)cc1 (stereo not shown)	kinase activity, KinaseProfiler		0.03 µM, species human	reference: control	remaining activity	108%
CN1CCN(Cc2ccc(-c3ccc(CO[C@H]4CCC[C@@H]4NC(=O)c4cc(-c5cnn(C)c5)cnc4N)cc3)cc2)CC1	enzyme activity, inhibitor		0.1 µM		inhibition	8%
O=c1c(-c2ccc(Cl)c(CN3CCOCC3)c2)coc2cc(O)ccc12	enzyme activity, inhibitor		1 µM		remaining activity	97%

Some of these lines once more:
Structure (SMILES)	assay	system	setting	scale	measurement	value
C=CC(=O)N1CCc2ccc(-n3c(=O)ccc4cnc5ccc(-c6cnn(C)c6)cc5c43)cc21	KINOMEscan		1 µM	reference: DMSO control	remaining binding	100%
